Results gathered from unrelated publications.
Lines come from different studies, so protocols differ. “And” joins repeats or separate records; there may be more than shown. Numbers after ± are the reported error.
mgrA full length assumed: mgrA full length assumed (Staphylococcus aureus, UniProt Q99VT5)
UniProt Q99VT5, sequence (whole entry, looked up): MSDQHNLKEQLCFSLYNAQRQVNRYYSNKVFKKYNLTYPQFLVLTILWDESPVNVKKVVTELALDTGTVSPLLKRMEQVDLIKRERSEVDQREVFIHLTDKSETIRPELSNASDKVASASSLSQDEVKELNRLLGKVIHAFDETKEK
AfsR 1-980: AfsR 1-980 (Streptomyces avermitilis)
T1: AfsR 1-980 (Streptomyces avermitilis); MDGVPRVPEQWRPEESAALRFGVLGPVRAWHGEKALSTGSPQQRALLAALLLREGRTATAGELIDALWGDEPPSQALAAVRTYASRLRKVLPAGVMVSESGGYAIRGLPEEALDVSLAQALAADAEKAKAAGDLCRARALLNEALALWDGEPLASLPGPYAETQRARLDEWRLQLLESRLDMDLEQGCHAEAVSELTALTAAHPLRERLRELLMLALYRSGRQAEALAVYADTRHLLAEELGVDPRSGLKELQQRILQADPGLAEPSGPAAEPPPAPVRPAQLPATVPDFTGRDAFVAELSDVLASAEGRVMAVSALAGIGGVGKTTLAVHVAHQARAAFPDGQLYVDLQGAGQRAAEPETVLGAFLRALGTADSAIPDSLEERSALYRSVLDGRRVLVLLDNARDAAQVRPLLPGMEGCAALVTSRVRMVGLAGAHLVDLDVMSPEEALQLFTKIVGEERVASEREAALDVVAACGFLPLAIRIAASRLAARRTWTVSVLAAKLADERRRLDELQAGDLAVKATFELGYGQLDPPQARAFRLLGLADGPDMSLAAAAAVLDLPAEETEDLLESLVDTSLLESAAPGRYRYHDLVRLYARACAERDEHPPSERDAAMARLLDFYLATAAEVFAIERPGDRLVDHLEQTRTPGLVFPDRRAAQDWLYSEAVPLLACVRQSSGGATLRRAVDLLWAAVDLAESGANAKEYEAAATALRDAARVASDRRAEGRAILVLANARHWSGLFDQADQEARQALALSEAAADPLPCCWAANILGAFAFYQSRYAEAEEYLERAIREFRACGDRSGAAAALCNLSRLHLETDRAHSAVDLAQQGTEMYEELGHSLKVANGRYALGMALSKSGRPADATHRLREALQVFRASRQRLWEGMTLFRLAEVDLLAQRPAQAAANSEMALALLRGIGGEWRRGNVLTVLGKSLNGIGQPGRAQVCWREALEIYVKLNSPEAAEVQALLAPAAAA
T2: mtrB 1-76 T49A/T52A (Alkalihalobacillus halodurans); chain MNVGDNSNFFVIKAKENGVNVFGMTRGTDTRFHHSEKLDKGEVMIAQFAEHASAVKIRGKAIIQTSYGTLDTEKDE; chain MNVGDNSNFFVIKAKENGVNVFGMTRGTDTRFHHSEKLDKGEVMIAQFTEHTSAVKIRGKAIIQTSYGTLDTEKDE

Substance | target or system | test | test system | conditions | how to read | measurement | value
CTCTATTTGCCTCCCTATACTTTTGAAAAACAGACAAATTCCATAACAGAAATTTGTCTGTTCGATAGAATAATTGAATGGTTTTTGATTTTAATGTGCAAAACTTTAAATTTATTAGTAGTCCATTCAATTATTCTCAATGCTAGTTATCTTACCTTATGCTGCTTTTTGTTTCTTCTTAT (dsDNA) | mgrA full length assumed | EMSA | double-stranded DNA, one strand shown | with: Montelukast absent |  | Kd | 4300 ± 1100 nM
insulin human |  | measured: MAPK10 mRNA | EcoHIV-infected mouse, brain | i.p., dose not given | reference: PBS | fold change | 1.09
nonaarginine | PorA peptide pore | peptide binding, planar bilayer single-channel recording |  | pH 7.4, -25 mV, cis side, 150 mM KCl |  | Kd | 1840 ± 200 nM
CTCCCTGCATGATGTTCTTATTTCTCCTTTTTCCAAGAAAGCGTGTCTCGGGGATTTCGATTGCTTGAGCAAAAGCGGTCGCGGCCGTGCGGGCTGGGTTGATCAGCATCAGAGGTGATGGTCAGTGTTATGAATTTGCCCTGGTGGGCGGGGTAGTGTCAAGGTCGCTGACTTTGATGATTAACTGATGATCGTGGGATTCTGAGGTGGTGTTCGCGAGGGTGAAGGAGTTCCTTCCTGGAGACATCCGTGCCCCGGATGGCGGTCCACAATTCACGAGTGGGATGC (dsDNA) | T1, AfsR 1-980 (Streptomyces avermitilis) | EMSA | double-stranded DNA, one strand shown |  |  | binding | binds
GAGUUGAGUUGAGUUGAGUUGAGUUGAGUUGAGUUGAGUUGAGUUGAGUUGAGUU (ssRNA; single-stranded) | T2, mtrB 1-76 T49A/T52A (Alkalihalobacillus halodurans) | filter binding | RNA | with: Trp 1 mM |  | Kd | 29 ± 9 nM
GCAGACGAGGACGGATGTCATGGCCGCCCTCCGCAGCTGATGCGCGTCACCTTGAGCCTCCAGGCTGGTTACGAATCGTCACCGGTGCGGTCGACACTCGCCGACGGAAACTGCCGCCTGCCCGAGCGCTTGTTCCTTCAACCGCCTCGCACTCTCAACGACGGTCACTCGAAAGAGTTACGGGGCGGTGAGCCATCTTCGGCACTCTAC (dsDNA) | T1, AfsR 1-980 (Streptomyces avermitilis) | EMSA | double-stranded DNA, one strand shown |  |  | binding | binds
RNA 1 AACAAAACAAAAUAGCACCGUAAAGC / RNA 2 GCUUUACGGUGCUA (dsRNA; 14 bp duplex, 5' 12 nt overhang) | DEAD-box ATP-dependent RNA helicase RhpA (Pseudomonas aeruginosa, UniProt Q9HX66) | fluorescence polarization | double-stranded RNA |  |  | Kd | 2.7 nM
GGGCGGGGGAGACAUAUAUCACAGCCUGUCUCGUGCCCGACCCCGCCC (RNA (Hepatitis C virus); hairpin; bulge; 12 nt apical loop) | HNRNPA1 UP1 1-196 (Homo sapiens) | ITC | folded RNA |  |  | Kd | 243 ± 30 nM
HVLVMSATRR |  |  | peptide, C57BL/6J mice, male, blood | subcutaneous osmotic pump, 3 mg/kg/day peptide basis, 8 weeks |  | eosinophils | 2% and 0% and 1% and 3%
AGTTGGCCGAAAGTGCTGTGCTCGCTGGAGAGTGCCGCGGCCTGTGCAGTCAAGGTGCTGATCATCAAGGACAGTCCAAGGGTGCTGAGGAGAGCATGTGTTTTCATCTGATCTGCCTGCTTTTATTGTTATTGGTAAGACTATTTGATCGGATTAAAGCCGATGCATGGATTTATAGCCTATAAAATGCCACTTGAAAAATAAATTGTAATACTATTTAGTAGTGCCAGCTTCACTGAAACCGGTCGATCCGCTGGATGCCTGCGAAACAGGTCGACTGGGCACGCAGGTTGGACAA (dsDNA) | LysR family transcriptional regulator 1-307 (Pseudomonas savastanoi pv. phaseolicola, UniProt Q48CZ9) | EMSA | double-stranded DNA, one strand shown |  |  | binding | binds
CGACAAGAGAAATCGGAAATTAAAAAACACGCATGGGACTCTCACAGGCTAGAGCGACGAGAGCAGCACAAATACCCCTAGATACCCCAGACCCCTGATGCTCGATGAATGCCGCTATAGCTAGGGGGTATGGCGCCAGACATGAATTCACAGCGTTTCGGCGGCCGGCTGGCGCTTGTCACAGGTGCAGGC (dsDNA) | T1, AfsR 1-980 (Streptomyces avermitilis) | EMSA | double-stranded DNA, one strand shown |  |  | binding | binds
aspterric acid |  | hypocotyl length | Arabidopsis thaliana Col-0 seeds | 50 µg/mL |  | inhibition | 98.9%
GATTACTTTTTTGCAATTTCATATGATCAATCCCCTTTATTTTAATATGTCATTAATTATACAATTAAATGGAAAATAGTGATAATTACAAAGAAAAAAATATTGTCAAATGTAGCAATGTTGTAATACAATATAGAAACTTTTTACGAATATTTAGCATGAATTGCAATTTGTCGTGGAAAAGAAGAATAACAGATTTAAGAATGACATGGAGAAAAAAGAGGTGAGCAT (dsDNA) | mgrA full length assumed | EMSA | double-stranded DNA, one strand shown | with: Montelukast absent |  | Kd | 10600 ± 3400 nM

Some of these lines once more:
Substance | target or system | test | test system | conditions | how to read | measurement | value
GGGCGGGGGAGACAUAUAUCACAGCCUGUCUCGUGCCCGACCCCGCCC (RNA (Hepatitis C virus); hairpin; bulge; 12 nt apical loop) | HNRNPA1 UP1 1-196 (Homo sapiens) | ITC | folded RNA |  |  | Kd | 243 ± 30 nM
